Assay results pooled from the literature.
Each numbered part is a random draw from the data of one study; scales do not carry over between parts. Changes are numbered by the printed parent chain.

Sample 1
Target: Ras GTPase-activating protein-binding protein 1, full length (G3BP1, Homo sapiens, UniProt Q13283)
Chain of UniProt Q13283 (whole entry, looked up): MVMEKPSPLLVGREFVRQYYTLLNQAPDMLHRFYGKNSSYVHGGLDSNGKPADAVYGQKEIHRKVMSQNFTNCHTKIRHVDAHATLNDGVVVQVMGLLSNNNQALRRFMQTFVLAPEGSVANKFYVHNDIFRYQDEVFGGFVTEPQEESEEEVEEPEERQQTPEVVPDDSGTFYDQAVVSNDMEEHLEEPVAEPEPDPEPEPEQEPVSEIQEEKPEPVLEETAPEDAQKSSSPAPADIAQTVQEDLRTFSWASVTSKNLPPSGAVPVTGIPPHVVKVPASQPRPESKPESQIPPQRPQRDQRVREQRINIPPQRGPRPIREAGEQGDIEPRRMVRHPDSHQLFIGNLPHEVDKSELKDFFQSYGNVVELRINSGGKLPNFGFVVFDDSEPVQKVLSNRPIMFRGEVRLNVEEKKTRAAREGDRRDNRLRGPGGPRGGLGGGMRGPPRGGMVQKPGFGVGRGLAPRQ
Technique: RNA Bind-n-Seq
Molecule type: RNA
Matrix: in vitro
Concentration: 200 nM
Notes: whole 134-nt RNA, ends assumed
Together with: 150 mM LiCl
Reference: input library
Direction: higher = stronger binding
Each molecule: 7-deaza-guanosine replaces G
Constant ends, left off below: GGGAGUUCUACAGUCCGACGAUC … UGGAAUUCUCGGGUGUCAAGG
Oligonucleotide	log2 enrichment
ACCAUGCAGGUGGGCAUCUUUGGGAAGUGGAAAAAGGGGGGGAUAGGGAGGGGGGUAACACUUUGGGAACAGGUGGUCCCAGGUCGUUUC	0.428
CACAGACAACACGCACCCACACAGACACAGAGGGAAGGGGUUGGGAUGGGGACAGGGUGCACAGCAGGGCGGCGUAGGACCCCAGCCCCU	0.173
AGUCCUGUGCUACACAUCGUAUGUACCGAAUCGGUUUUGGGGUUUUGGGUUUUGGGGAAAGUAUUAUGUUACGCCGUUCGGAUCUGCACU	-0.3
CACAGACAACACGCACCCACACAGACACAGAGGGAAGGGGUUGGGAUGGGGACAGGGUGCACAGCUGGGCGGGGUAGGACCCCAGCCCCU	-0.346
UCUGCUAAAGAGAAAGGAAAAUUUGAAGAUAUGGCAAAAGCGGACAAGGCCCGUUAUGAAAGAGAAAUGAAAACCUAUAUCCCUCCCAAA	0.714
UCCUGUGCUACACAUCGUAUGUACCGAAUCGGCCCCCCGGGGCCCCCCGGGCCCCCCGGGAAAGUAUUAUGUUACGCCGUUCGGAUCUGC	-2.53
CUCAAGUCCUGUGCUACACAUCGUAUGUACCGAAUCGGGGUUGGGUUGGUUGGGAAAGUAUUAUGUUACGCCGUUCGGAUCUGCACUUCC	0.376
CCUGUGCUACACAUCGUAUGUACCGAAUCGGGGAGGGGAAAAAAAGGGGUUUUUUUGGGGAAAGUAUUAUGUUACGCCGUUCGGAUCUGC	0.464
AAGUCCUGUGCUACACAUCGUAUGUACCGAAUCGGUUUUUGGUUUUUGGUUUUUGGGAAAGUAUUAUGUUACGCCGUUCGGAUCUGCACU	-0.499

Sample 2
Target: Interferon regulatory factor 5, full length, phosphomimetic (IRF5, Homo sapiens, UniProt Q13568-2, residues 1-514, S451D/S453D/S456D/S462D)
Technique: protein-binding microarray
Molecule type: double-stranded DNA, one strand shown
Matrix: in vitro
Concentration: 940 nM top
Notes: 60-bp whole probe
Together with: salmon DNA 0.4 mg/ml
Reference: random background probes
Direction: higher = stronger binding
Constant ends, left off below: GCCTAGCAC … GTCTTGATTCGCTTGACGCTGCTG
Oligonucleotide	fitted relative affinity [z-score]
AAGAATCAGGGGTTTTATCCGTGCTAG	-0.18
GACGATATCAGTATCGATACGTGCTAG	5.43
GACGGTGTCGGTTCCGGGACGTGCTAG	0.703
CCCTGTGTCCACAGCTGGATGTGCTAG	-0.322
ATTGTCTTCCCCATCTTGTTGTGCTAG	1.55
TTACGTTTCGGTTCCGGTTAGTGCTAG	9.93
GAAGATTTCAATTAGAAAAAGTGCTAG	-0.171
TTAGGACAGCTTATCCTTTAGTGCTAG	-0.229
TTAGATATCGGGACTCGATTAGTGCTA	0.0924
GGCGGTTTCGGTTCCGGGACGTGCTAG	14.3
TTAGGTATCCTTTTCCTTCAGTGCTAG	0.732
TTATGTCTCGGACTGGGTTAGTGCTAG	0.945
TATGGCTTCAAGTAACTACAGTGCTAG	-0.525
TTAGATTTCGCGTTTCGATTAGTGCTA	2.24
TTTTTTTTTTCCCTGAAAAAGTGCTAG	1.61
TAAGGTTTCCTTATCCTTTAGTGCTAG	1.39
TTAGGTTTCGGGAATCGGTTAGTGCTA	8.18
AAAATGATTGGTTGAACATGGTGCTAG	0.075
TTAGAACTGATTATCGATTAGTGCTAG	-0.0357
TTAGGTATCCTTTTCCTATAGTGCTAG	0.871
GACGGTGCCCTTTTCCTGACGTGCTAG	0.139
TAGAACTTCTCCACTGAATGAGTGCTA	0.104
GACCGTTTCGACTATCGGGACGTGCTA	3.99
TTTCGTTACTTCCTCAAACAGTGCTAG	10.5
GACGGTTTCGGGATTCGGGACGTGCTA	7.81

Sample 3
Target: Sal-like protein 4, full length isoform B (SALL4, Homo sapiens, UniProt Q9UJQ4-2, residues 1-616)
Technique: universal PBM
Molecule type: double-stranded DNA, one strand shown
Matrix: in vitro
Concentration: not given
Notes: 8-mer, flanks averaged, mean of replicates
Direction: higher = stronger binding
Oligonucleotide	E-score
GGCTTAAC	-0.0387
CCCCCACG	-0.125
ATCAGTTA	0.246
CGGAGCCA	-0.311
AGCAGCCA	-0.0244
GCTCGTAC	-0.0982
AATTCGCT	0.0942
CCCAGAAC	-0.138
TGTGATAA	0.27
ATCAAAAT	0.227
CATGATCC	-0.096
CCGGACAG	-0.311
AAGTAGTC	0.0232
AGTGCATC	0.0328
AACTGTAA	0.328
CCTGTCTC	-0.159
TAGCGCTA	0.0566
GCCGATCA	0.0483
ACTAGCGC	-0.155
GGACATGA	-0.0142
AGCGCCAA	-0.0418

Sample 4
Target: Prothrombin, mature alpha-thrombin (F2, Homo sapiens, UniProt P00734)
Technique: aptamer microarray, sandwich
Molecule type: DNA with 2'F-ANA
Matrix: in vitro
Concentration: 200 nM
Notes: whole 15-mer aptamer, many near background
Together with: Cy3 exosite-II aptamer, 400 nM
Direction: higher = stronger binding
Oligonucleotide: GGTTGGTGTGGTTGG
Modification	mean fluorescence intensity
2'F-ANA at 2 5 6 8 9	94.5 a.u.
2'F-ANA at 3 4 6 7 8 11 13	479 a.u.
2'F-ANA at 4 5 6 9 13	60.9 a.u.
2'F-ANA at 4 5 6 7 8 9 10 11 12	55.1 a.u.
2'F-ANA at 3 5 9 11 12 13 15	179 a.u.
2'F-ANA at 1 2 3 5 8 9 11 12 15	95.7 a.u.
2'F-ANA at 2 7 8 9 11 12 13 14	151 a.u.
2'F-ANA at 2 4 7 8 9 10 11 14 15	75.3 a.u.
2'F-ANA at 2 5 7 8 9 12 13 14	46.1 a.u.
2'F-ANA at 1 3 5 7 8 11 14	45 a.u.
2'F-ANA at 1 2 3 4 7 10 11 13	63.9 a.u.
2'F-ANA at 1 3 4 5 6 7 9 10 11 14	48.7 a.u.
2'F-ANA at 1 2 6 7 9 11 12 13 15	162 a.u.
2'F-ANA at 3 6 7 9 12 15	1150 a.u.
2'F-ANA at 1 2 3 5 6 8 11 13 15	57.7 a.u.
2'F-ANA at 4 5 6 8 9 10 12 15	59.1 a.u.
2'F-ANA at 1 2 3 5 6 8 9 10 11 12	51 a.u.
2'F-ANA at 1 2 4 8 9 11 12 13 14 15	58.8 a.u.
2'F-ANA at 1 2 4 10 13 14 15	52.2 a.u.
2'F-ANA at 3 4 5 8 10 14 15	53.5 a.u.
2'F-ANA at 2 4 7 8 9 13 14	141 a.u.

Sample 5
Target: CCNB2, cyclin fold, Cln2 fusion (human)
Technique: yeast growth competition, sequencing
Matrix: yeast
Notes: weak parent motif
Reference: not given
Direction: higher = stronger binding
Parent: ORC1 docking peptide (human); PRARKRLELGNLG; partner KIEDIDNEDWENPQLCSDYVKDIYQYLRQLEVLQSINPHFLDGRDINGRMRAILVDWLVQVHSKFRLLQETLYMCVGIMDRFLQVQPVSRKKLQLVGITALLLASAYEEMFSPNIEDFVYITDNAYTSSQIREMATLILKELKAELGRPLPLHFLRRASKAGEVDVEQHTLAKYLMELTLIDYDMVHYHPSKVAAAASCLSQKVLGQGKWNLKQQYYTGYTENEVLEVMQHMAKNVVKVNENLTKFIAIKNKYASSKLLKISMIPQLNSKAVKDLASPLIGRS
Variant	normalised enrichment score
PRARKRLELMNLG [G10M]	0.745
PRARKRLELGNLC [G13C]	0.662
PRARKRLELGHLG [N11H]	0.313
PRAYKRLELGNLG [R4Y]	0.266
PRGRKRLELGNLG [A3G]	-0.17
PRARKRLELGNIG [L12I]	0.43
PRARKRLEYGNLG [L9Y]	0.259
PRWRKRLELGNLG [A3W]	0.301
PRARKRLECGNLG [L9C]	0.919
PRARMRLELGNLG [K5M]	0.226
PRARHRLELGNLG [K5H]	0.258
PRARKRLELPNLG [G10P]	0.112
PRARVRLELGNLG [K5V]	0.122
PRYRKRLELGNLG [A3Y]	1.26
PRARKRLELGNLS [G13S]	0.751
VRARKRLELGNLG [P1V]	0.128

Single results of other studies
Substance	target	test	test system	conditions	scale	quantity	result
PhoQ, residues 284 288 289 292 302 303 SCEHLI	PhoP, residues 12 14 15 18 19 LQHIR (Escherichia coli, UniProt P23836)	Sort-seq, item: YFP reporter	E. coli	PhoQ-PhoP variant library, together with: 10 µM Mg2+	reference: high Mg2+ state, higher = stronger signaling	fold induction	2.81

Some of these lines once more (sample 3):
Oligonucleotide	E-score
GGACATGA	-0.0142
GGCTTAAC	-0.0387
AAGTAGTC	0.0232
AGCGCCAA	-0.0418
CCCAGAAC	-0.138
CCTGTCTC	-0.159
CATGATCC	-0.096
ATCAAAAT	0.227
GCTCGTAC	-0.0982
ACTAGCGC	-0.155
